{"data": "Experimental data from different studies", "dcp2 with Dcp1": "mRNA decapping complex subunit 2, with Dcp1 (dcp2, Schizosaccharomyces pombe, UniProt O13828)", "ache": "Acetylcholinesterase (ache, Electrophorus electricus, UniProt O42275)", "GABBR1": "Gamma-aminobutyric acid type B receptor subunit 1 (GABBR1, Homo sapiens, UniProt Q9UBS5)", "chain of UniProt O42275 (whole entry, looked up)": "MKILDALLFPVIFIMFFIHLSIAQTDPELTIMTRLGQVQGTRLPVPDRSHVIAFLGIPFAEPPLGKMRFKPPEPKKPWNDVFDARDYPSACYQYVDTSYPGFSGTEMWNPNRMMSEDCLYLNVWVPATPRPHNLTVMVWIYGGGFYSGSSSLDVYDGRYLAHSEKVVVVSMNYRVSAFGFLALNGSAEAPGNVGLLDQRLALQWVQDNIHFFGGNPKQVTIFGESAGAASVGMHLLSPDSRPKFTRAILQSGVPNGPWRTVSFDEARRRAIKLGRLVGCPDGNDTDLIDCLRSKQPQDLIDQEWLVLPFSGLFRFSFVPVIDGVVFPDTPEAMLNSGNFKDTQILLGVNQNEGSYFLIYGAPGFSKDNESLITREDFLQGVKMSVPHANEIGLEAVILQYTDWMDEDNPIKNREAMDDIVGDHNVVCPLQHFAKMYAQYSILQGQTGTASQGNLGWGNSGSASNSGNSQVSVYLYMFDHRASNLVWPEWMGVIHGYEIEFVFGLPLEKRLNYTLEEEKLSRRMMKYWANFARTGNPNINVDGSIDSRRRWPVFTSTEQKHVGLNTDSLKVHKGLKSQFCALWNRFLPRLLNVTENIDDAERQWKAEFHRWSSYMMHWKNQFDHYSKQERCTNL", "chain of UniProt Q9UBS5 (whole entry, looked up)": "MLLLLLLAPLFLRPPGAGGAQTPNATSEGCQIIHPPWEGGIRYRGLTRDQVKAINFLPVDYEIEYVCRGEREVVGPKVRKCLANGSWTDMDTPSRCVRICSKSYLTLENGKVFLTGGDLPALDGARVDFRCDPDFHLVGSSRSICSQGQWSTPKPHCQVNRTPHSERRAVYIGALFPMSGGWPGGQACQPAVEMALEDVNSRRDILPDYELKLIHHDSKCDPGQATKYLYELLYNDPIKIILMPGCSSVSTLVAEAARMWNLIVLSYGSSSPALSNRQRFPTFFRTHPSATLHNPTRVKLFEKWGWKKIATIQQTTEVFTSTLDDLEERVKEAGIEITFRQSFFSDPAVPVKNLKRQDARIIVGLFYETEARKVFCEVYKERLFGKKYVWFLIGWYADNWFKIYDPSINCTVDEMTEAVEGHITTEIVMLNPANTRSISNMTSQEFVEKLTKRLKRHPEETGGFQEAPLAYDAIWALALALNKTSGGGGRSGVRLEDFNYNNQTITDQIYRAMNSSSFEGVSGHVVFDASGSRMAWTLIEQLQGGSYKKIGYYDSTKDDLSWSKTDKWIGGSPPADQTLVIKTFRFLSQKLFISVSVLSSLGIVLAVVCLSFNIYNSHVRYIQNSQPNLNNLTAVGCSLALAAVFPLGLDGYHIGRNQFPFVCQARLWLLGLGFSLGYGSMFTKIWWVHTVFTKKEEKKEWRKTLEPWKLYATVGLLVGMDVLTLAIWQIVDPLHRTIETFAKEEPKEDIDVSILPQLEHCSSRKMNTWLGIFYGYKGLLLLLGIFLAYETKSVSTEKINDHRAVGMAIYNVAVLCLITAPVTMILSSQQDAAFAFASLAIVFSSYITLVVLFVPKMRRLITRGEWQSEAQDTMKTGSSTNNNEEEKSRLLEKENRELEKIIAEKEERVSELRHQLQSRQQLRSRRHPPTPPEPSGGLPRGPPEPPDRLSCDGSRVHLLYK", "chain of UniProt O13828 (whole entry, looked up)": "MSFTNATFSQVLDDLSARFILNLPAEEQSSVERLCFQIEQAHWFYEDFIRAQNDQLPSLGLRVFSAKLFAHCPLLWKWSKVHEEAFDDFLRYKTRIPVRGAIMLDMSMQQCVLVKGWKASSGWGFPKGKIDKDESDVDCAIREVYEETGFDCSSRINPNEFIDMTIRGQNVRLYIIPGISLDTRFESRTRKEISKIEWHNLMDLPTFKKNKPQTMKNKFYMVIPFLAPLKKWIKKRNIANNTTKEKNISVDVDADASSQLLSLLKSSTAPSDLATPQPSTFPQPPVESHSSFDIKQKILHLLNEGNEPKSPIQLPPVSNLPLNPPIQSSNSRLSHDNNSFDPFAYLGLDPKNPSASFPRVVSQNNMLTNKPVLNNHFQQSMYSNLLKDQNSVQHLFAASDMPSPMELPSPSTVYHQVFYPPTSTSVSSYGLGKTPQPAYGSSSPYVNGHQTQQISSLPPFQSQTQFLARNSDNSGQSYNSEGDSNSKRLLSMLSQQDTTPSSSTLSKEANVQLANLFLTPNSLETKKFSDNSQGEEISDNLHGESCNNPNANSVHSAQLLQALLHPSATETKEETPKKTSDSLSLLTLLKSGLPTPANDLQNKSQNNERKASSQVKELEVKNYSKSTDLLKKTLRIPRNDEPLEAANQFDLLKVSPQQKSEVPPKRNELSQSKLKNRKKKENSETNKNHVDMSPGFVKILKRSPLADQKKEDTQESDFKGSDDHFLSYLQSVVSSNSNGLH", "chain of UniProt Q02294 (whole entry, looked up)": "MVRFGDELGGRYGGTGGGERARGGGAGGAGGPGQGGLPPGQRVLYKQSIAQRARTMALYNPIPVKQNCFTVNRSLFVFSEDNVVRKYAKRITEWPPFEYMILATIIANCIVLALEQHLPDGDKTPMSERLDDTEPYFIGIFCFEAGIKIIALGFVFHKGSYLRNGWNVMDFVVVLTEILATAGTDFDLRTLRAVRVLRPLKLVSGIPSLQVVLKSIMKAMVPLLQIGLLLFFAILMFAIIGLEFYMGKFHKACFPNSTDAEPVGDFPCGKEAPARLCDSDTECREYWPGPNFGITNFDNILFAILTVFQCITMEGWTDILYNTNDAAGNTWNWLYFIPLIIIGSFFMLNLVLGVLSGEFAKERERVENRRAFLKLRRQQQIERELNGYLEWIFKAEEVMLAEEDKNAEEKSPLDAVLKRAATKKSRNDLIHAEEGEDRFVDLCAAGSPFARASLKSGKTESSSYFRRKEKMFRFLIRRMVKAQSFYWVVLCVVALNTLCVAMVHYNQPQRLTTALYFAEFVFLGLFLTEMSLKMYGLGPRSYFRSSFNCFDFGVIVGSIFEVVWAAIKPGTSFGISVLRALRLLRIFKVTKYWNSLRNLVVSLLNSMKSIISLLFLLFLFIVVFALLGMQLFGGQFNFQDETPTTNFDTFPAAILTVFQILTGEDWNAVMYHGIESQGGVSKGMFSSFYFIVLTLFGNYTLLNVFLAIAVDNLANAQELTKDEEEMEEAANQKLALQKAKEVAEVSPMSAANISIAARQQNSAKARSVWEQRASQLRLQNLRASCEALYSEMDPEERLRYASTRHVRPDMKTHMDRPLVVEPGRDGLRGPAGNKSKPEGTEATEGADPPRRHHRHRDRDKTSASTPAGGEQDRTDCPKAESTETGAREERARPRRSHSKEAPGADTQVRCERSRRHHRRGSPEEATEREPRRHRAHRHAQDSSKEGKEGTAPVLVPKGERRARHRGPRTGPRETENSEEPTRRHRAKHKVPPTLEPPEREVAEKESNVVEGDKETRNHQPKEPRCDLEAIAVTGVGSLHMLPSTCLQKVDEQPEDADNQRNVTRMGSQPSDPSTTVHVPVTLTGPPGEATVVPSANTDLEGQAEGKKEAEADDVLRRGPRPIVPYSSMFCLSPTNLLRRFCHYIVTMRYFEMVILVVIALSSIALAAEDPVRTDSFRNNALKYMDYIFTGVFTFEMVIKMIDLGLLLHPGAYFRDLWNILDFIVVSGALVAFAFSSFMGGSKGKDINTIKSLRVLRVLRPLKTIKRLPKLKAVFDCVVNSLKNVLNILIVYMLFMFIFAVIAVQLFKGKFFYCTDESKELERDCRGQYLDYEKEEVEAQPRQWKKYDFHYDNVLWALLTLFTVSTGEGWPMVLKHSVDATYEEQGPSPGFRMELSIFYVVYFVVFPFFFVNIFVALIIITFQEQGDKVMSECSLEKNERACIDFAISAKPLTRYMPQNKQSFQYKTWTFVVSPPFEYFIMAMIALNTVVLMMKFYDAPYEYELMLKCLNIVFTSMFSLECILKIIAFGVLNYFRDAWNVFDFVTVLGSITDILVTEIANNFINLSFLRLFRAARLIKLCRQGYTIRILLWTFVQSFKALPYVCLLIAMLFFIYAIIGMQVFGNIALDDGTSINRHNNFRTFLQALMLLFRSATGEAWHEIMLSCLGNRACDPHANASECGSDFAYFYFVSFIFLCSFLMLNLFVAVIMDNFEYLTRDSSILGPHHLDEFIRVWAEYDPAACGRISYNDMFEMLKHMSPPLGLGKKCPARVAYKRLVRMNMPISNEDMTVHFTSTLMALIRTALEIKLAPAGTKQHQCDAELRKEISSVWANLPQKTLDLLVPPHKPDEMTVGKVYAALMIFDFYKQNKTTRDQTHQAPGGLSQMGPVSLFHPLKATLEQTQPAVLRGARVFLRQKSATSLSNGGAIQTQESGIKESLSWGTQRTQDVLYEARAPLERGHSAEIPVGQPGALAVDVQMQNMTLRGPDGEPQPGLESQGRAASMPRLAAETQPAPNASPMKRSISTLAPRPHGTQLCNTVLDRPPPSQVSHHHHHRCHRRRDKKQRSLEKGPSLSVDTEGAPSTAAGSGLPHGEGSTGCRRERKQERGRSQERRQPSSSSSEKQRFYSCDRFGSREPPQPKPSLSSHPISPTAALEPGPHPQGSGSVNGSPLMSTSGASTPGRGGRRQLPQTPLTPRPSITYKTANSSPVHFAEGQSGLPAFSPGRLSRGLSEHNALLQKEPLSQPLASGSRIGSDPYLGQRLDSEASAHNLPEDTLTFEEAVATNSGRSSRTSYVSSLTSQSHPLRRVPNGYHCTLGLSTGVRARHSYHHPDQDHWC", "chain of UniProt P25084 (whole entry, looked up)": "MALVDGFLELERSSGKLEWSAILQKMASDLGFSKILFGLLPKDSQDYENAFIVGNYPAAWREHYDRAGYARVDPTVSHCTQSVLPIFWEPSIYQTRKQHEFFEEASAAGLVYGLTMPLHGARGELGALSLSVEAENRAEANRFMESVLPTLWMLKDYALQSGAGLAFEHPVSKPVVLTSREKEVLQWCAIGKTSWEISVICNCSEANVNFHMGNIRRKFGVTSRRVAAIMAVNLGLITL"}
{"Structure (SMILES)": "C[n+]1cn([C@@H]2O[C@H](COP(=O)([S-])OP(=O)(O)OP(=O)(O)OP(=O)([S-])OC[C@H]3O[C@@H](n4c[n+](C)c5c(O)nc(N)nc54)[C@H](O)[C@@H]3O)[C@@H](O)[C@H]2O)c2nc(N)nc(O)c21 (mixture of isomers)", "target": "dcp2 with Dcp1", "conditions": "200 µM, 0.25 h", "inhibition": "49.4%"}
{"Structure (SMILES)": "CC(=O)NC[C@@H]1[C@@H](O)C[C@H]2[C@H](O)C[C@@H](CO)N12", "target": "human placental β-N-acetylglucosaminidase", "conditions": "0.171 µM, run 1, with: p-nitrophenyl GlcNAc", "inhibition": "71.4%"}
{"Structure (SMILES)": "O=C(CCc1ccc(Br)cc1)N[C@H]1CCOC1=O", "target": "Transcriptional activator protein LasR (lasR, Pseudomonas aeruginosa, UniProt P25084)", "assay": "reporter gene, antagonist", "system": "Escherichia coli JLD271", "conditions": "10 µM, pSC11 and pJN105L plasmids, with: OdDHL 2 nM", "inhibition": "4%"}
{"Structure (SMILES)": "C=CC(=O)Nc1cc(-c2nn(C3CCC(N4CCN(C(C)=O)CC4)CC3)c3ncnc(N)c23)ccc1Oc1ccccc1 (centres unmarked)", "target": "Mitogen-activated protein kinase kinase kinase kinase 3 (MAP4K3, Homo sapiens, UniProt Q8IVH8)", "assay": "inhibitor, KiNativ profiling", "system": "biochemical", "conditions": "2 µM", "inhibition": "16.4%"}
{"Structure (SMILES)": "CN(C)[C@H]1C[C@@]23CC[C@@]4(O2)C(=CC[C@]2(C)[C@@H](c5ccc6ccncc6c5)CC[C@H]24)C=C3[C@@H](O)[C@@H]1O", "target": "Cyclin-dependent kinase 16 (CDK16, Homo sapiens, UniProt Q00536)", "assay": "ATP probe labelling, inhibitor, KiNativ profiling", "conditions": "0.1 µM", "inhibition": "-5.3%"}
{"Structure (SMILES)": "O=C(O)c1ccccc1/C=N/Nc1nc(-c2ccccc2Cl)cs1", "target": "Proto-oncogene tyrosine-protein kinase ROS (ROS1, Homo sapiens, UniProt P08922)", "assay": "enzyme activity, inhibitor", "conditions": "1 µM", "inhibition": "3.98%"}
{"Structure (SMILES)": "CS(C)(=O)=Nc1ccc(-c2ccc(-c3nc4cc(O[C@@H]5CO[C@H]6[C@@H]5OC[C@H]6O)[nH]c4cc3F)cc2)cc1", "target": "L-type Ca2+ channel verapamil site", "assay": "binding", "conditions": "10 µM", "inhibition": "10%"}
{"Structure (SMILES)": "CN[C@@H]1[C@H](O)[C@H](NC)[C@H]2O[C@]3(O)[C@H](O[C@@H]2[C@H]1O)O[C@H](C)C[C@H]3NC(=O)Cc1cc(Cl)ccn1", "target": "Adenosine receptor A1 (ADORA1, Homo sapiens, UniProt P30542)", "assay": "ligand displacement, radioligand", "conditions": "10 µM", "inhibition": "8%"}
{"Structure (SMILES)": "CNC(=O)c1cccc(-c2ccc3ncc(-c4cccc(C(=O)NCCN(C)C)c4)n3n2)c1", "target": "ache", "assay": "enzyme activity, inhibitor, Ellman", "conditions": "5 µM", "inhibition": "65.3%"}
{"Structure (SMILES)": "CN1CCNCC1", "target": "ache", "assay": "enzyme activity, inhibitor, Ellman", "conditions": "20 µM", "inhibition": "35.2%"}
{"Structure (SMILES)": "N[C@H](C(=O)N1CCCC1)C1CCN(c2nccc3c(-c4ncc(Cl)cc4Cl)cccc23)CC1", "target": "NMDA receptor", "assay": "binding, radioligand binding", "conditions": "10 µM", "inhibition": "21%"}
{"Structure (SMILES)": "CC(C)[C@H]1NC(=O)C[C@H]2/C=C/CCSSC[C@@H](NC1=O)C(=O)N[C@H](Cc1cccc3ccccc13)C(=O)NCC(=O)O2", "target": "Tyrosine-protein kinase Fyn (FYN, Homo sapiens, UniProt P06241)", "assay": "enzyme activity, inhibitor", "conditions": "10 µM", "inhibition": "4.8%"}
{"Structure (SMILES)": "Cc1ccc2c(n1)c(-c1cccc(S(C)(=O)=O)c1)c(C)n2C/C(F)=C/CN", "target": "Voltage-dependent N-type calcium channel subunit alpha-1B (Cacna1b, Rattus norvegicus, UniProt Q02294)", "assay": "ligand displacement, radioligand", "conditions": "10 µM", "inhibition": "2%"}
{"Structure (SMILES)": "CN(/N=C/c1ccccc1C(=O)O)c1nc(-c2ccccc2Cl)cs1", "target": "TGF-beta receptor type-1 (TGFBR1, Homo sapiens, UniProt P36897)", "assay": "enzyme activity, inhibitor", "conditions": "1 µM", "inhibition": "-8.98%"}
{"Structure (SMILES)": "C[n+]1cn([C@@H]2O[C@H](COP(=O)([S-])OP(=O)(O)CP(=O)(O)OP(=O)([S-])OC[C@H]3O[C@@H](n4c[n+](C)c5c(O)nc(N)nc54)[C@H](O)[C@@H]3O)[C@@H](O)[C@H]2O)c2nc(N)nc(O)c21 (some centres unmarked)", "target": "dcp2 with Dcp1", "conditions": "200 µM, 0.5 h", "inhibition": "33.1%"}
{"Structure (SMILES)": "NCC1CCN(Cc2ccccc2)CC1", "target": "ache", "assay": "enzyme activity, inhibitor, Ellman", "conditions": "20 µM", "inhibition": "33.7%"}
{"Structure (SMILES)": "C/C(=N\\OCCCN1CCCCC1)c1ccc(C(F)(F)F)cc1", "target": "5-hydroxytryptamine receptor 3A (HTR3A, Homo sapiens, UniProt P46098)", "assay": "calcium influx, antagonist, FLIPR", "conditions": "10 µM", "inhibition": "-0.54%"}
{"Structure (SMILES)": "Cc1cccc(OC(C)C(=O)Nc2nc(-c3ccccc3)n[nH]2)c1 (centres unmarked)", "target": "Beta-lactamase (ampC, Escherichia coli K-12, UniProt P00811)", "assay": "enzyme activity, inhibitor", "conditions": "up to 10 µM, colloidal aggregation counterscreen, with: 0.1% DMSO", "inhibition": "no inhibition"}
{"Structure (SMILES)": "O=C(NC1CCN(c2ncnc3[nH]cnc23)CC1)c1cccc(NS(=O)(=O)c2ccc(C(F)(F)F)cc2)c1", "target": "mRNA cap guanine-N(7) methyltransferase (RNMT, Homo sapiens, UniProt O43148)", "assay": "enzyme activity, inhibitor", "conditions": "50 µM", "inhibition": "6.52%"}
{"Structure (SMILES)": "C[C@H](NCc1ccc(-c2ccc(C(F)(F)F)cc2)cc1)C(N)=O", "target": "Estrogen receptor (ESR1, Homo sapiens, UniProt P03372)", "assay": "radioligand binding, SafetyScreen panel", "conditions": "1 µM, with: 0.50 nM [3H]Estradiol", "inhibition": "1%"}
{"Structure (SMILES)": "O=C1c2ccccc2CCCN1CCCCN1CCN(c2cccc(Cl)c2Cl)CC1", "target": "5-hydroxytryptamine receptor 4 (HTR4, Homo sapiens, UniProt Q13639)", "assay": "radioligand binding", "conditions": "concentration not given", "inhibition": "11.2%"}
{"Structure (SMILES)": "NCCc1ccc(F)cc1", "target": "ache", "assay": "enzyme activity, inhibitor, Ellman", "conditions": "20 µM", "inhibition": "49.3%"}
{"Structure (SMILES)": "COc1ccc(F)cc1S(=O)(=O)Nc1cnc2c(c1)C(=O)NCCO2", "target": "GABBR1", "assay": "radioligand binding, inhibitor", "conditions": "10 µM", "inhibition": "7%"}
{"Structure (SMILES)": "O=C(CN1CN(c2ccccc2)C2(CCN(C(=O)c3cnc4[nH]ncc4c3)CC2)C1=O)NCC(F)(F)F", "target": "Serine/threonine-protein kinase SIK3 (SIK3, Homo sapiens, UniProt Q9Y2K2)", "assay": "inhibitor", "conditions": "concentration not given", "inhibition": "< 50%"}
{"Structure (SMILES)": "CN[C@@H]1[C@H](O)[C@H](NC)[C@H]2O[C@]3(O)[C@H](O[C@@H]2[C@H]1O)O[C@H](C)C[C@H]3NC(=O)Cc1ccc(Cl)cn1", "target": "GABBR1", "conditions": "10 µM", "inhibition": "19%"}
{"Structure (SMILES)": "NC1CCCC1", "target": "ache", "assay": "enzyme activity, inhibitor, Ellman", "conditions": "20 µM", "inhibition": "32.5%"}
{"note": "For quick reference, copied from above:"}
{"Structure (SMILES)": "CC(=O)NC[C@@H]1[C@@H](O)C[C@H]2[C@H](O)C[C@@H](CO)N12", "target": "human placental β-N-acetylglucosaminidase", "conditions": "0.171 µM, run 1, with: p-nitrophenyl GlcNAc", "inhibition": "71.4%"}
